Results of several laboratories.
± marks the error that the study gave.

Substance = C=C(C)C1CC=C(COC(=O)CCC(=O)OC2OC3OC4(C)CCC5C(C)CCC(C2C)C35OO4)CC1 (stereo not drawn); tested on = SK-MEL-24; test = cell viability, MTT; conditions = 24 h, added: deferoxamine 20 µM, 1 h before; quantity = IC50; value = 0.16 ± 0.04 µM
Substance = CC1(C)[C@@H]2CC[C@]3(C)[C@H](CC[C@@H]4CC=C(O[Si](C)(C)C(C)(C)C)C[C@]43C=N)[C@@]2(C)CCC12OCCO2; tested on = mouse DRG neurons; test = voltage-gated calcium current, inhibitor, patch clamp; quantity = IC50; value = 0.29 µM
Substance = CC(C)[C@H]1c2ccc(F)cc2CC[C@@]1(CCN(C)CCCc1nc2ccccc2[nH]1)OC(=O)C1CC1; tested on = HepG2; test = cell viability, ATP content; conditions = 24 h; quantity = IC50; value = 18.8 ± 1.5 µM
Substance = N.N.[Cl][Pt][Cl]; tested on = CCD-18Co colon fibroblasts; test = cell viability, MTS; conditions = 48 h; quantity = IC50; value = 72 ± 1.5 µM
Substance = CC(C)C[C@H](NC(=O)[C@H](CCCCN)NC(=O)[C@H](CS)NC(=O)[C@H](CC(C)C)NC(=O)[C@@H](NC(=O)[C@@H](NC(=O)[C@H](CO)NC(=O)[C@H](Cc1ccccc1)NC(=O)[C@@H]1CCCN1C(=O)[C@H](Cc1c[nH]c2ccccc12)NC(=O)[C@H](Cc1c[nH]cn1)NC(=O)[C@H](CC(=O)O)NC(=O)CNC(=O)[C@H](CCCNC(=N)N)NC(=O)[C@H](C)NC(=O)[C@@H](N)Cc1ccc(O)cc1)[C@@H](C)O)C(C)C)C(=O)N[C@H](C(=O)N[C@@H](CCCNC(=N)N)C(=O)O)C(C)C; tested on = K562; test = cell adhesion; conditions = 15 min preincubation, added: vitronectin beads; quantity = IC50; value = 105 ± 35 µM
Substance = CC(C)c1ccc2c(c1)CC[C@H]1[C@](C)(CN)CCC[C@]21C; tested on = SBcl2; test = cell growth or viability, MTS; conditions = 24 h; quantity = IC50; value = 7.41 µM
Substance = COc1ccc(C[C@H]2NC(=O)/C=C/C[C@@H]([C@H](C)[C@@H](OC(=O)CNC(=O)CCc3cn(CCOCCOCCOCCOCC(=O)NCc4ccc(CN5C(=O)[C@H]6CC(=O)N[C@@H](CCCNC(=N)N)C(=O)NCC(=O)N[C@@H](CC(=O)O)C(=O)NC[C@H]5C(=O)N6)cc4)nn3)[C@@H](Cl)c3ccccc3)OC(=O)[C@H](CC(C)C)OC(=O)C(C)(C)CNC2=O)cc1Cl; tested on = M21 human melanoma (integrin αvβ3-positive); test = cell viability, MTT; conditions = 2 h treatment plus 70 h; quantity = IC50; value = 0.261 ± 0.0458 µM
Substance = CCN(CC)CCCCNc1ncc2cc(-c3c(Cl)cccc3Cl)c(NC(=O)NC(C)(C)C)nc2n1; tested on = HEK293T ERR reporter line; test = cell viability, qHTS; quantity = IC50; value = 21.1 µM
Substance = CC[C@H](C)[C@H](N)C(=O)N[C@@H](CC(C)C)C(=O)N[C@@H](CCCNC(=N)N)C(=O)N[C@@H](Cc1c[nH]c2ccccc12)C(=O)N[C@@H](CO)C(=O)N[C@@H](CCCNC(=N)N)C(=O)N[C@@H](CCCCN)C(=O)N[C@@H](CC(C)C)C(=O)N1CCC[C@H]1C(=O)N[C@@H](CS)C(=O)N[C@H](C(=O)N[C@@H](CO)C(=O)O)C(C)C; tested on = SUP-T1; test = cell migration, inhibitor; quantity = IC50; value = 0.48 µM
Substance = O=C(N=P12CN3CN(CN(C3)C1)C2)c1ccccn1; tested on = DU-145; test = cell growth or viability, MTT; conditions = 24 h; quantity = IC50; value = > 500 µM
Substance = C#CC[C@H](N)C(=O)NCC(=O)NCC(=O)N[C@@H](Cc1ccc(O)cc1)C(=O)N[C@@H](CC(N)=O)C(=O)N[C@@H](CC(C)C)C(=O)N[C@@H](CCCNC(=N)N)C(=O)N1CCC[C@H]1C(=O)N[C@@H](CCCNC(=N)N)C(=O)N[C@H](C(=O)N[C@@H](Cc1ccc(O)cc1)C(=O)N[C@@H](CCC(N)=O)C(=O)N1CCC[C@H]1C(=O)N[C@@H](CCC(N)=O)C(=O)N[C@@H](CCCNC(=N)N)C(=O)N[C@@H](Cc1ccc(O)cc1)C(=O)NCC(=O)NCC(N)=O)[C@@H](C)O; tested on = A2780cisR; test = cell growth or viability, MTT; conditions = 72 h, drug-resistant strain; quantity = IC50; value = > 200 µM
Substance = N.N.[Cl][Pt][Cl]; tested on = Hep3B; test = cell growth or viability, trypan blue; conditions = 48 h, dark; quantity = IC50; value = 98.6 µM
Substance = Trastuzumab emtansine; tested on = MDA-MB-468; test = cell viability, CellTiter-Glo; conditions = 5 d, concentration as DM1 content; quantity = IC50; value = 0.0695 ± 0.005 µM
Substance = COc1cc(C(=O)c2oc3ccccc3c2N)cc(OC)c1OC; tested on = L1210; test = cell growth or viability; quantity = IC50; value = 32.4 µM
Substance = Oc1ccc2c3c1O[C@H]1c4[nH]c5c(c4C[C@@]4(O)[C@@H](C2)N(CC2CC2)CC[C@]314)C[C@@]1(O)[C@H]2Cc3ccc(O)c4c3[C@@]1(CCN2CC1CC1)[C@H]5O4; tested on = HEK293 expressing MOR; test = cAMP overshoot, inhibitor, HTRF cAMP; conditions = added: morphine then naloxone; quantity = IC50; value = 4.61 µM
Substance = CN(C)c1cc2c(Nc3ccc4c(cnn4Cc4ccccc4)c3)ncnc2cn1; tested on = H3255 (EGFR L858R); test = cell viability, Alamar Blue; conditions = 120 h; quantity = IC50; value = 0.67 ± 0.1 µM
Substance = O=C(Cn1cnc2ccccc2c1=O)NCc1cccnc1; tested on = MDA-MB-231; test = cell growth or viability, crystal violet; conditions = 48 h; quantity = IC50; value = 34.4 µM
Substance = CC(C)[C@@H]1NC(=O)[C@H](C)OC(=O)[C@@H](C(C)C)NC(=O)[C@@H](C(C)C)OC(=O)[C@H](C(C)C)NC(=O)[C@H](C)OC(=O)[C@@H](C(C)C)NC(=O)[C@@H](C(C)C)OC(=O)[C@H](C(C)C)NC(=O)[C@H](C)OC(=O)[C@@H](C(C)C)NC(=O)[C@@H](C(C)C)OC1=O; tested on = U-251; test = cell growth or viability, SRB; quantity = IC50; value = 0.0076 µM
Substance = O=C(NC12CC3CC(CC(C3)C1)C2)c1cc2ccccc2[nH]1; tested on = KNS-42; test = cell growth or viability, resazurin; conditions = 72 h; quantity = IC50; value = 0.33 µM
Substance = COc1ccc(C[C@H]2NC(=O)/C=C/C[C@@H]([C@H](C)[C@@H](OC(=O)CNC(=O)OCc3ccc(NC(=O)[C@H](C)NC(=O)[C@@H](NC(=O)CCc4cn(CCOCCOCCOCCOCC(=O)NCc5ccc(CN6C(=O)[C@H]7CC(=O)N[C@H](C(=O)O)CC(=O)NCC(=O)N[C@@H](CCCNC(=N)N)C(=O)NC[C@H]6C(=O)N7)cc5)nn4)C(C)C)cc3)[C@@H](Cl)c3ccccc3)OC(=O)[C@H](CC(C)C)OC(=O)C(C)(C)CNC2=O)cc1Cl; tested on = M21 human melanoma (integrin αvβ3-positive); test = cell viability, MTT; conditions = 2 h treatment plus 70 h; quantity = IC50; value = 0.123 ± 0.0186 µM
Substance = Cc1c(OCC(F)(F)F)ccnc1C[S+]([O-])c1nc2ccccc2[nH]1 (stereo not drawn); tested on = PANC-1; test = colony formation; quantity = IC50; value = 58.6 µM
Substance = O=C(NC(=O)c1cc2c(F)cc(F)cc2[nH]1)c1cccc(Cl)c1; tested on = KNS-42; test = cell growth or viability, resazurin; conditions = 72 h; quantity = IC50; value = 6.65 µM
Substance = N.N.[Cl][Pt][Cl]; tested on = A-375; test = cell growth or viability, MTT; conditions = 72 h; quantity = IC50; value = 2.56 µM
Substance = CN[C@@](C)(C[18F])C(=O)O; system = SCID mouse U87 xenograft, liver; conditions = 30 min, post injection; quantity = tissue uptake; value = 8.9 ± 1.6 %ID/g
Substance = COc1ccc(C[C@H]2NC(=O)/C=C/C[C@@H]([C@H](C)[C@@H](OC(=O)CN)[C@@H](Cl)c3ccccc3)OC(=O)[C@H](CC(C)C)OC(=O)C(C)(C)CNC2=O)cc1Cl; tested on = M21; test = cytotoxicity, resazurin; conditions = 2 h plus 70 h incubation, with β-glucuronidase 2 U/well; quantity = IC50; value = 0.00422 ± 0.00044 µM
Substance = CCNC(=O)[C@H]1O[C@@H](n2cnc3c(N)ncnc32)[C@H](O)[C@@H]1O; tested on = HL-1, non-transfected; test = protection from cell death; conditions = 4 h, added: H2O2 750 µM; quantity = IC50; value = 3.7 ± 1 µM
Substance = CC(N)C(O)CCCCCCCCCCCCCCC(=O)CCCCCCCC(O)C(C)N (stereo not drawn); tested on = MCF-12A; test = cell growth or viability, resazurin; conditions = 96 h; quantity = IC50; value = 20.8 µM
Substance = CCc1c(Cl)nc(N)nc1Cl; tested on = mouse peritoneal cells; test = nitric oxide production, Griess; conditions = 24 h, added: LPS plus IFN-gamma; quantity = IC50; value = 35.7 µM
Substance = CNC(=O)c1cc(Oc2ccc(NC(=O)Nc3ccc(Cl)c(C(F)(F)F)c3)c(F)c2)ccn1; tested on = MHCC97H; test = cell growth or viability, MTT; conditions = 48 h; quantity = IC50; value = 0.95 µM
Substance = N=C(N)NCCC[C@H](NC(=O)[C@H](Cc1c[nH]c2ccccc12)NC(=O)[C@H](CCC(N)=O)NC(=O)[C@H](Cc1c[nH]c2ccccc12)NC(=O)[C@H](CCCNC(=N)N)NC(=O)[C@H](Cc1c[nH]c2ccccc12)NC(=O)[C@H](CCC(N)=O)NC(=O)[C@H](Cc1c[nH]c2ccccc12)NC(=O)[C@@H](N)CCCN)C(N)=O; tested on = Caco-2; test = cell growth or viability, MTT; quantity = IC50; value = 91 µM

Excerpt of the above:
Substance = COc1ccc(C[C@H]2NC(=O)/C=C/C[C@@H]([C@H](C)[C@@H](OC(=O)CNC(=O)CCc3cn(CCOCCOCCOCCOCC(=O)NCc4ccc(CN5C(=O)[C@H]6CC(=O)N[C@@H](CCCNC(=N)N)C(=O)NCC(=O)N[C@@H](CC(=O)O)C(=O)NC[C@H]5C(=O)N6)cc4)nn3)[C@@H](Cl)c3ccccc3)OC(=O)[C@H](CC(C)C)OC(=O)C(C)(C)CNC2=O)cc1Cl; tested on = M21 human melanoma (integrin αvβ3-positive); test = cell viability, MTT; conditions = 2 h treatment plus 70 h; quantity = IC50; value = 0.261 ± 0.0458 µM
Substance = CCN(CC)CCCCNc1ncc2cc(-c3c(Cl)cccc3Cl)c(NC(=O)NC(C)(C)C)nc2n1; tested on = HEK293T ERR reporter line; test = cell viability, qHTS; quantity = IC50; value = 21.1 µM
